Assay results collected from several papers.
Protocols differ between the studies behind these lines.
Cell line: HEL

| SMILES | effect on | method | time | endpoint | result |
| --- | --- | --- | --- | --- | --- |
| C[C@H](NC(=O)[C@H](Cc1ccccc1)NC(=O)OCc1ccccc1)C(=O)NC(C)(C)C | – | microscopic cell morphology | – | minimum cytotoxic concentration | > 100 µM |
| OCc1cn(-c2nc(O)c3ncn([C@H]4C[C@H](O)[C@@H](CO)O4)c3n2)nn1 | cell morphology | – | – | minimum cytotoxic concentration | > 290 µM |
| Nc1ncnc2c1ncn2CCOC(Cc1ccccc1)CP(=O)(O)O (centres unmarked) | cell growth or viability | – | 72 h | CC50 | 247 µM |
| O=C1c2ccccc2C(=O)N1Cc1cn(-c2nc(O)c3ncn([C@H]4C[C@H](O)[C@@H](CO)O4)c3n2)nn1 | cell morphology | – | – | minimum cytotoxic concentration | > 210 µM |
| C#C[C@@]1(O)[C@@H](CO)O[C@@H](n2cnc3c(N)ncnc32)[C@@H]1O | cell growth or viability | – | – | CC50 | 0.73 µM |
| C[C@H](NC(=O)[C@]1(Cc2ccccc2)CCN1C(=O)OCc1ccccc1)C(=O)NC(C)(C)C | – | microscopic cell morphology | – | minimum cytotoxic concentration | > 100 µM |
| O=c1ccn(Cc2cccc3ccccc23)c(=O)n1CCCCCOc1ccc(Br)cc1 | cell morphology | – | – | minimum cytotoxic concentration | > 100 µM |
| CC(C)CNC(=O)[C@H](C)NC(=O)[C@@]1(Cc2ccccc2)CCN1C(=O)OCc1ccccc1 | – | microscopic cell morphology | – | minimum cytotoxic concentration | > 100 µM |
| O=c1c2ccccc2n(CCCCCOc2ccc(Br)cc2)c(=O)n1Cc1cccc2ccccc12 | cell morphology | – | – | minimum cytotoxic concentration | > 100 µM |
| OC[C@H]1O[C@@H](n2cnc3c(O)nc(-n4cc(-c5ccccc5)nn4)nc32)C[C@@H]1O | cell morphology | – | – | minimum cytotoxic concentration | > 250 µM |
| Nc1nc(O)c2ncn(COC(CO)CO)c2n1 | cell growth | – | 3 days | CC50 | ≥ 445 µM |

Some of these lines once more:
| SMILES | effect on | method | time | endpoint | result |
| --- | --- | --- | --- | --- | --- |
| C[C@H](NC(=O)[C@H](Cc1ccccc1)NC(=O)OCc1ccccc1)C(=O)NC(C)(C)C | – | microscopic cell morphology | – | minimum cytotoxic concentration | > 100 µM |
| OCc1cn(-c2nc(O)c3ncn([C@H]4C[C@H](O)[C@@H](CO)O4)c3n2)nn1 | cell morphology | – | – | minimum cytotoxic concentration | > 290 µM |
